Assay results pooled from the literature.
Every numbered part comes from another study and shows a few of its results, in no order. Substitutions count along the parent as printed.

Block 1 — technique: RNA Bind-n-Seq; molecule type: RNA; sample: in vitro; tested at: 200 nM; setting: whole 134-nt RNA, ends assumed; with: 150 mM KCl; reference: input library; reading: higher = stronger binding; quantity: log2 enrichment
Target: Fragile X messenger ribonucleoprotein 1, C-terminal low-complexity region (Fmr1, Mus musculus, UniProt P35922)
Shared flanks, not repeated: GGGAGUUCUACAGUCCGACGAUC … UGGAAUUCUCGGGUGUCAAGG
CCUCAAGUCCUGUGCUACACAUCGUAUGUACCGAAUCGGUGGGUGGGGUGGGAAAGUAUUAUGUUACGCCGUUCGGAUCUGCACUUCCAG: 1.04
GUCCUGUGCUACACAUCGUAUGUACCGAAUCGGGCCCCCGGGCCCCCGGGCCCCCGGGAAAGUAUUAUGUUACGCCGUUCGGAUCUGCAC: -0.837
AAGUCCUGUGCUACACAUCGUAUGUACCGAAUCGGUGGAAAAAAAGGUUUUUUUGGAAAGUAUUAUGUUACGCCGUUCGGAUCUGCACUU: -1.13
CACAGACAACACGCACCCACACAGACACAGAGGGUAGGGGUUGGGAUGGGGACAGGGUGCACAGCAGGGCGGGGUAGGACCCCAGCCCCU: 1.46
GCAGGAAGUAAAAACAAAUGGAAAUGCUUCGGGUAGUGGCAGGGGUGGGGGUUGCUAAGGAAAGGGUGGGAUGGGAGUGGGUAAAGAGUU: 0.271
UCCUGUGCUACACAUCGUAUGUACCGAAUCGGGGAGGGGAAAAAGGGGAAAAAAAGGGGAAAGUAUUAUGUUACGCCGUUCGGAUCUGCA: 0.471
ACCAUGCAGGUGGGCAUCUUUGGGAAGUGGGGCAAGGGGGGGAUAGGGAGGGGGGUUACACUUUGGGAACAGGUGGUCCCAGGUCGUUUC: 0.79
GUCCUGUGCUACACAUCGUAUGUACCGAAUCAAACCCAAAUUUUUUUAAACCCCCAAAAAAGUAUUAUGUUACGCCGUUCGGAUCUGCAC: -0.0925
AAGUCCUGUGCUACACAUCGUAUGUACCGAAUCGGUUUUUUUGGUUUGGUUUUUGGAAAGUAUUAUGUUACGCCGUUCGGAUCUGCACUU: -0.958
AGUCCUGUGCUACACAUCGUAUGUACCGAAUCGGGAAAAAAAGGGAGGGUUUUUGGGAAAGUAUUAUGUUACGCCGUUCGGAUCUGCACU: 0.424
UUCAAGGCCAUGAAGGACCUGUUUAUGCGGUGCAUGCUGUUUACCAGAGGAGGACAUCAGAUCCUGCAUUAUGUACACUGAUCGUUUCUG: -1.06
AAGUCCUGUGCUACACAUCGUAUGUACCGAAUCGGGAGGGAAAAAAAGGGUUUGGGAAAGUAUUAUGUUACGCCGUUCGGAUCUGCACUU: 0.73
UUUUCAUACCGAUCUAGAGUUCGUCCUUGCGUGGUUUAUGGUGGUGCCGAUAUUGGUCAGCAGAUUCGAGACUUGGAACGUGGAUGCCAU: 0.159
UCUAUGUAGCAUCCAGGUACUACUUCCUUUGGAAUGUCAGUAUUUAAUCUGAGCAAUGCGAUUGUGGGCAGUGGAAUCCUUGGGCUUUCU: -0.701

Block 2 — technique: universal PBM; molecule type: double-stranded DNA, one strand shown; sample: in vitro; tested at: not given; reading: higher = stronger binding; quantity: E-score
Target: Sal-like protein 4, full length isoform B (SALL4, Homo sapiens, UniProt Q9UJQ4-2, residues 1-616)
Setting: 8-mer, flanks averaged, mean of replicates
Target sequence (chain): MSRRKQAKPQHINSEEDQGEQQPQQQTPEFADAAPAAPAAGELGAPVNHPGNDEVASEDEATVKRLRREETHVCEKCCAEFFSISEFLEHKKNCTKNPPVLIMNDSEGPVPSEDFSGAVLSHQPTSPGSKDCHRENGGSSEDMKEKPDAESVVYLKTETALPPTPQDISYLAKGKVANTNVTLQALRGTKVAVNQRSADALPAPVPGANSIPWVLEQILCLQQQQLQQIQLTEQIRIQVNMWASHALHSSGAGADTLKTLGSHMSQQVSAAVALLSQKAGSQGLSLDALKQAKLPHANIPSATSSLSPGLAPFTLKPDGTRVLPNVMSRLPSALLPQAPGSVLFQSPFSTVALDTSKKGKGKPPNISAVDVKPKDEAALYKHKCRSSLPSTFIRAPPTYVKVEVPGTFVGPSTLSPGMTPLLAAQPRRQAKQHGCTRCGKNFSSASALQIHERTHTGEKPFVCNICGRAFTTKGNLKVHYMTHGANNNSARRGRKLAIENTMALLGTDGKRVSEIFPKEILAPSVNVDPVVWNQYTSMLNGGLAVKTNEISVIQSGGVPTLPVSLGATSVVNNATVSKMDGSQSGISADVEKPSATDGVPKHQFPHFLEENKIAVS
AAAAAGAT: 0.219
GAGCGGTA: -0.195
GCCGGGAC: -0.249
CTTACGAC: 0.0335
GACGTGGA: -0.109
CTGTGTGC: -0.198
TGCAGCCA: -0.189
GCACTCCC: -0.208
CGGATTCC: -0.117
GCTTTGAC: -0.0556
AGAAGCAC: -0.0658
AAAGATCC: -0.0271
CATTCGCG: -0.065
GAAGTGTA: 0.0124
AGAGTGAA: 0.0592
CGTTGATC: 0.00633

Block 3 — technique: protein binding microarray; molecule type: double-stranded DNA, one strand shown; sample: in vitro; tested at: not given; reference: not given; reading: higher = stronger binding; quantity: E-score
Target: Histone acetyltransferase KAT6A, both winged helices, GST fusion (KAT6A, Homo sapiens, UniProt Q92794, residues 1-181)
Setting: 8-mer, flanks averaged, mean of 2 arrays, mostly near background
Target sequence (chain): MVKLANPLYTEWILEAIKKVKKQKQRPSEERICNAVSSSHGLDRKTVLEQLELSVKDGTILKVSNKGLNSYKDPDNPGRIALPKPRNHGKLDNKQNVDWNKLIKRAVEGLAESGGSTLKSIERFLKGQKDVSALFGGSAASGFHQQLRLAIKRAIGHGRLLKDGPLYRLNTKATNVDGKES
GCCATACC: -0.00854
AACTCACA: -0.166
CGTGGTAC: 0.022
ATAGTATG: -0.153
CTTCATCC: -0.138
CAGAACCC: -0.00406
ATCGTCCA: 0.00155
AGTTAGCG: 0.0901
ATGTCAAA: 0.00085
AGATGTAC: -0.105
GCGAGTAC: 0.151
CACGCGGC: 0.261
CGTGCAGA: -0.0181
AAAGTTCT: -0.0172
AATTCGCC: 0.0524
AAGGTCAA: -0.119
ATGTAAGA: -0.112
AGCTTGCA: -0.161
AAGATGAT: -0.132
CGGAATAC: 0.128
AAAAAGGA: -0.207
ATAGGGTA: -0.138
ACAACTAC: -0.147
CTGCCCCC: -0.142
AAGTATAT: -0.0602

Block 4 — technique: RNA Bind-n-Seq; molecule type: RNA; sample: in vitro; tested at: 20 nM; setting: 6-mer, flanks averaged, single round; with: 150 mM KCl; reference: input library; reading: higher = stronger binding; quantity: 6-mer enrichment (R)
Target: TAR DNA-binding protein 43, full length, His tag (TARDBP, Homo sapiens, UniProt Q13148, residues 1-414)
UGGCUU: 0.717
CCAUAC: 0.597
CCAGGC: 0.936
ACUUAC: 0.567
UUUGAC: 0.629
AAGGGG: 4.17
GGCCGA: 1.62
UAGCCG: 0.823
UCGCCG: 0.789
CCUCUU: 0.601
UAAGCA: 0.657
AUCCUU: 0.579
AAUCGU: 0.612
CACGAC: 0.681
ACGGUC: 0.741
AAAUAA: 0.898
UCGGAU: 0.739
GCAUUU: 0.648
GUACGG: 1.74

Block 5 — technique: RNA Bind-n-Seq; molecule type: RNA; sample: in vitro; tested at: 365 nM; reference: no-protein control; reading: higher = stronger binding; quantity: RBNS enrichment (R)
Target: RNA binding protein fox-1 homolog 2, RRM domain, GST-SBP tag (RBFOX2, Homo sapiens, UniProt O43251-10, residues 100-194)
Setting: natural RNA segment, single round, ends assumed
Shared flanks, not repeated: GGGAGUUCUACAGUCCGACGAUC … UGGAAUUCUCGGGUGCCAA
Residues (chain): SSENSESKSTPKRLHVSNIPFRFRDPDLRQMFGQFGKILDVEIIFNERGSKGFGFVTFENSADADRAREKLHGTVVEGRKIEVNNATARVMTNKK
AAAUUGUCCUUUUGAUACCAUCAUCUUGUUUUCUUUUUGUAGGUAUAAAUAAAAACACUGUUGACAAAAGGUGUGAGCUUUUAUUGCUUAAUUCUCUGAAUAAUUCAACG: 0.368
AUACCAAAUGUCUUGCAAAGAAAUGUUAUUAAAACCUUGAAUUUUUACAAAUGUAAAAAACAAAAAGUGUAUUAAUGUAUUUGUUCAGGAAAAGCUACAUACCGAAGGGC: 0.403
UUCCUAUGAGCAGUUCAACCUGUGCCUGCAAAGCCAAAGGGGCUGAGGUACAUUAGAGCAUGGAGGACACCUCCACAUCUUUUGAAAUCCAGGCAAGGAGACCAAAACUU: 0.306
CAUAUUUGAACUGCCAUCUAUUAGCAUAUUCAUCACACUACAUAGACAUAGUUUUACUGCCCCCUUUUUAGCUCAUGGGAUUUCCUGUUUACAGGUAGCAAUAGUCAAUU: 0.461
AGCUGUGAGUGUGGCCUGCUGCCUGCUUGUGAUGAGUGAUACCGUCUUACUGUUUCUGUUUCACAUAGGGACAUUUAAAUCAAUGUCAAUGUGCGUCCAUGCUUGAGUGA: 0.793
CAAGGACUCAGAACAACAUGGCUUUUUGAUCGGUACCAACCGACCUACAUCAAUUAGUUAUUGGACUUCACAAAGAUUUGCCGCUGUGGAUCAAACAGGACCACCUCCCU: 0.236
UAACAGGUUAGCUAAAAUUGGGAGCAUGCCUUAAAACUUAAAGAUUGUAUGCAUAUAUGUGUAUAUGUUAUAAACGUGAAAUAUAUUUGACACACACAUUCACAUAUAAA: 0.778
GGCUAAAUCCUGUGGAAUUGUUUUUAAUGACUGAAUUUAACCAUUUUCAUAGUUGGUUCCUGGAGGUGUGCCAAGUGCCCGCUUGCCUCUUCUAGACCCACAGCUUCUUG: 0.317
UUAUUUUUUUCUCUCAAUGGUAUAGCAUAUUCCUAUGCUUGAGAAGUAUAGGUCUACUGAAAAACCAUUGUAAAUGGACGUUACAGGUAUGCUGUAUUUUUGAAGGUAUU: 0.542
ACUGGUCGGAUAACUCCGCCUGCUGCCCACAUUCCUCUUUCUAGUCCUCCCACCUGCCUUCCUCCAUACAAACUAACAGUCUCAUGGGGGGAAGAAAGCAAGGGACAAAG: 0.19
ACAAAAUAGAUUUUAAGGCUAACUUCUUUUCACUGUUGUGCUCCUUUGCAAAAUGUAUGUUACAAUAGAUAGUGUCAUGUUGCAGGUUCAACGUUAUUUACAUGUAAAUA: 0.535
GACAUUUUUCCCUAUUUUCCUCACUUUAUGGAAGAGUUAAAACAUUUCUAAACCAGAGGACAAAAGGGGUUAAUGUUACUUUAAAAUUACAUUCUAUAUAUAUAUAAAUA: 0.854

Block 6 — target: CEBPE, bZIP domain (human); technique: DHFR protein complementation; sample: yeast; reference: wild-type JUN-FOS pair; reading: higher = stronger binding; quantity: binding fitness
Setting: single substitutions, most at no-binding floor
Parent: JUN, bZIP domain (human); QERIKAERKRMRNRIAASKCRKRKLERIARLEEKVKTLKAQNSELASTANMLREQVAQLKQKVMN; partner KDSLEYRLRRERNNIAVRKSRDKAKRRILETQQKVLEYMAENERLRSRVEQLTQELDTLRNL
T37E: -0.921 natural log
L38G: -1.47 natural log
Q41H: -1.4 natural log
A46E: -1 natural log
R30S: -0.926 natural log
L45T: -1.54 natural log
I28Y: -1.35 natural log
L31P: -1.52 natural log
L31R: -1.51 natural log
I28M: -1.11 natural log
L38I: -1.33 natural log

Block 7 — read-out: peptide binding; molecule type: peptide; sample: yeast competitive growth; with: B1-Cln2 chimera; reading: direction not given; quantity: enrichment score
EHCRVLFLDHVMYTIH: -1.01
NEGVSNAVRRSLYIRD: -0.547
SPPRGRRLFPPGPAGF: -0.237
PHKTFRKLRLFDTPHT: -0.888
ESSQLTVQAEFDMSAI: 0.769
NSMKELNFSHLPSNSV: 0.221
KVRRNLFNQELLSP: -0.325
VLPGGVPSPGASLTSM: 0.483
RQVRRDLFAF: -1.63
EPRNLLSLFEDTLDPT: 0.615
NESHLDKEHDAVEVAD: 0.743
QYQVVDDIVSKLVFDF: 1.34
VKRLNFRSEEME: 0.167
HPESPPRKRLKSKGSD: 4.44

Excerpt of the above (block 4):
UCGCCG: 0.789
CCUCUU: 0.601
UAAGCA: 0.657
AUCCUU: 0.579
AAUCGU: 0.612
CACGAC: 0.681
ACGGUC: 0.741
AAAUAA: 0.898
UCGGAU: 0.739
